Measured values from different studies.
Numbered parts are unrelated; each lists some results of a single study.
Sequence of UniProt Q16288 (whole entry, looked up): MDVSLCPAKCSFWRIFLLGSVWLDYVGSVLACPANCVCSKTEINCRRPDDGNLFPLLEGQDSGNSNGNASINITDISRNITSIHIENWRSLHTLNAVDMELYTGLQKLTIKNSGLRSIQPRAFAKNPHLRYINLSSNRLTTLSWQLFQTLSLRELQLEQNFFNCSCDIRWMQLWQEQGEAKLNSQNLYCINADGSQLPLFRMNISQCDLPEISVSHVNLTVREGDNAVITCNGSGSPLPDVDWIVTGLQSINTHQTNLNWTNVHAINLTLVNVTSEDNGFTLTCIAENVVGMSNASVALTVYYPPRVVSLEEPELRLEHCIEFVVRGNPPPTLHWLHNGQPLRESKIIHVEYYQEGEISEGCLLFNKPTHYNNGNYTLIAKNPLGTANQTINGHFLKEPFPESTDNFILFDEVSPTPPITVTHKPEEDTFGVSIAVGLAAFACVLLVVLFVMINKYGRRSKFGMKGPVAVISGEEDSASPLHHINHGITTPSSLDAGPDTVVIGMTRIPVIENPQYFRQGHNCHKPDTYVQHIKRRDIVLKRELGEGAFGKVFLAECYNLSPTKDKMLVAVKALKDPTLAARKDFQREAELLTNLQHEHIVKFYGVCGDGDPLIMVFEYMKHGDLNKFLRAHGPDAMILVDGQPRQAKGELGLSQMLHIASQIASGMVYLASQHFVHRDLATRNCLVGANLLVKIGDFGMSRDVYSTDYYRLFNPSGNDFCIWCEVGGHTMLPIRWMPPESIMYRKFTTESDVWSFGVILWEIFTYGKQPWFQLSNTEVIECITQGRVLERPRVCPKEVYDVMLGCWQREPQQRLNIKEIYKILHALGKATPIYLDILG
Sequence of UniProt Q15375 (whole entry, looked up): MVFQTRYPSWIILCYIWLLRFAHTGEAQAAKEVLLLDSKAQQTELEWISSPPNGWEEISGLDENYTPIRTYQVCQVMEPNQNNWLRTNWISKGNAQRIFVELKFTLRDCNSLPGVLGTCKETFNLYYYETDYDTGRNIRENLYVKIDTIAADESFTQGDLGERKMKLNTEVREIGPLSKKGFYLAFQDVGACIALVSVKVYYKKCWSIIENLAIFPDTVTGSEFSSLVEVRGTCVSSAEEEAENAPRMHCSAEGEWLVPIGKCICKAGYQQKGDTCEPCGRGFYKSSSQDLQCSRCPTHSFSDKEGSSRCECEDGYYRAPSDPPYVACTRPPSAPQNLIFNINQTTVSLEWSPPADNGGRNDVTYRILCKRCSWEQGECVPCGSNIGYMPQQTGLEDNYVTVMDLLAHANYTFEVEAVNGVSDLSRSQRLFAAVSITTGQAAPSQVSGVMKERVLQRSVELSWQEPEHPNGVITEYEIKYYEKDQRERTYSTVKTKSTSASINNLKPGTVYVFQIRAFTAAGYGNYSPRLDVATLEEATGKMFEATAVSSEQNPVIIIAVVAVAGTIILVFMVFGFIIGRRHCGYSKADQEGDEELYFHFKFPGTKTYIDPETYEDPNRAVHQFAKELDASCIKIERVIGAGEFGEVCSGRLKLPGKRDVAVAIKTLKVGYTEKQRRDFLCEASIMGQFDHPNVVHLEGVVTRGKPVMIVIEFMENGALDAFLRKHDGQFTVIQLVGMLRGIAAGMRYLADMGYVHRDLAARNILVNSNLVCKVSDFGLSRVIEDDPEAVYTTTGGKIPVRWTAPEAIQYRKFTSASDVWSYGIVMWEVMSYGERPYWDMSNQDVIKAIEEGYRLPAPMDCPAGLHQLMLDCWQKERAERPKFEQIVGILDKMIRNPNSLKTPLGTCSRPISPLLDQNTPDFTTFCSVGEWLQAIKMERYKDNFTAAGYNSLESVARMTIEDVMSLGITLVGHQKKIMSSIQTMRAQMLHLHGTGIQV
Sequence of UniProt Q00537 (whole entry, looked up): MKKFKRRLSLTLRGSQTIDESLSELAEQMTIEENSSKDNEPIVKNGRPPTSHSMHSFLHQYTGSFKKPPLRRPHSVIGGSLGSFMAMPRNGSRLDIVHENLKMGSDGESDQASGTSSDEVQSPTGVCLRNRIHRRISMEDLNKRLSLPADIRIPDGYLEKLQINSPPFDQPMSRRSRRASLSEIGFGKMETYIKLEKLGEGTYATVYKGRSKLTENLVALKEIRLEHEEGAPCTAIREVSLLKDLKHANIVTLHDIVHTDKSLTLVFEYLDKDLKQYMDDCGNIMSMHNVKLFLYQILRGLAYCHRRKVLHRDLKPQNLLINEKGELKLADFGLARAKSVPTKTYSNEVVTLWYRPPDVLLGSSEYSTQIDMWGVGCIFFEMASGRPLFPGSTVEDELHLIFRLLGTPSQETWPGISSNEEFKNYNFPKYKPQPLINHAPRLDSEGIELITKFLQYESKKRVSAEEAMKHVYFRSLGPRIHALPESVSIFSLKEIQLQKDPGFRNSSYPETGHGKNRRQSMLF
Sequence of UniProt Q16620 (whole entry, looked up): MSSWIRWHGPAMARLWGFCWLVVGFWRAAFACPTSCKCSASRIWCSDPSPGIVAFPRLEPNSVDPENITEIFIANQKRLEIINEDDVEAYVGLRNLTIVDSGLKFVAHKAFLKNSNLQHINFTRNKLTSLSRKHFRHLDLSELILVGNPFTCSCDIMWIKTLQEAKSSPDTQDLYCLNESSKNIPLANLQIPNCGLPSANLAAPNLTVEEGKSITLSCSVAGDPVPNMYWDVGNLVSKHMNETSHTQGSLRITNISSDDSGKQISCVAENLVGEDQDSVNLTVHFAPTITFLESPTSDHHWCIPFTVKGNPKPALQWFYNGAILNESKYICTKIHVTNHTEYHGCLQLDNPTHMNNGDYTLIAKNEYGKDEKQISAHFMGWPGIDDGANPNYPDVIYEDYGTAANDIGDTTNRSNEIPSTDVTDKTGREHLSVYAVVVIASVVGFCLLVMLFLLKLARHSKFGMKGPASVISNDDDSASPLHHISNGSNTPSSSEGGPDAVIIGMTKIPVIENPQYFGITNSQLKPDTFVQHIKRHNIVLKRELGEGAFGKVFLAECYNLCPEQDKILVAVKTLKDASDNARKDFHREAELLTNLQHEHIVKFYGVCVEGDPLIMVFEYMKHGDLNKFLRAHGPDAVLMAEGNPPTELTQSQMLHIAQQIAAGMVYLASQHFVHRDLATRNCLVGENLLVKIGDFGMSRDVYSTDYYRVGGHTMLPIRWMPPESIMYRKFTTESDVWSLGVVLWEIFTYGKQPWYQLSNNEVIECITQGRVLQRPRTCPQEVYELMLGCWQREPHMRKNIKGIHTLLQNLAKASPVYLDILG
Sequence of UniProt Q2M2I8 (whole entry, looked up): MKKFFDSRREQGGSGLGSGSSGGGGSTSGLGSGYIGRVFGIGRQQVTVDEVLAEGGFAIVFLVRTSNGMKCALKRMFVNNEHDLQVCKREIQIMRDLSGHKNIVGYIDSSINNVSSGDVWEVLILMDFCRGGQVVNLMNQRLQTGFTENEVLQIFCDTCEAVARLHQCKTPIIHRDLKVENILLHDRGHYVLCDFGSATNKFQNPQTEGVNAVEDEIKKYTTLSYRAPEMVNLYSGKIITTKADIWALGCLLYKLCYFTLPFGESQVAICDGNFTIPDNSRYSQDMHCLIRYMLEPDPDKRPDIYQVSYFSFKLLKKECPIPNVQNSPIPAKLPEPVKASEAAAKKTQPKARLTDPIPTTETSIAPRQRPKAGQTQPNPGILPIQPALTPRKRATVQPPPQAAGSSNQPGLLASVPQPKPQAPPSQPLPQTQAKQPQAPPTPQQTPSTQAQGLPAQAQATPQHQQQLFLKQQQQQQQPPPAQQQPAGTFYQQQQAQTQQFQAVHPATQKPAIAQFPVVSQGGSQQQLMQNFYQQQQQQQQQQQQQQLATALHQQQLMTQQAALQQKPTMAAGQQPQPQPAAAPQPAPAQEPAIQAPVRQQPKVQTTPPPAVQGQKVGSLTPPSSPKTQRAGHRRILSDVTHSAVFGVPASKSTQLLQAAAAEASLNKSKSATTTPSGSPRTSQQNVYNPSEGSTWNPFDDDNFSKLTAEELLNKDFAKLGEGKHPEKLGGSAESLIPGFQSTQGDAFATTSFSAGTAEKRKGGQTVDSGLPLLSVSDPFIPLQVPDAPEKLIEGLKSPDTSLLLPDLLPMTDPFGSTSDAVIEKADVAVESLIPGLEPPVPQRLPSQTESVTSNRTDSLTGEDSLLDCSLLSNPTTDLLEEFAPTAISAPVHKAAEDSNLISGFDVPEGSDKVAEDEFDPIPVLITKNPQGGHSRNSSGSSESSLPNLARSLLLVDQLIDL
Sequence of UniProt Q8N752 (whole entry, looked up): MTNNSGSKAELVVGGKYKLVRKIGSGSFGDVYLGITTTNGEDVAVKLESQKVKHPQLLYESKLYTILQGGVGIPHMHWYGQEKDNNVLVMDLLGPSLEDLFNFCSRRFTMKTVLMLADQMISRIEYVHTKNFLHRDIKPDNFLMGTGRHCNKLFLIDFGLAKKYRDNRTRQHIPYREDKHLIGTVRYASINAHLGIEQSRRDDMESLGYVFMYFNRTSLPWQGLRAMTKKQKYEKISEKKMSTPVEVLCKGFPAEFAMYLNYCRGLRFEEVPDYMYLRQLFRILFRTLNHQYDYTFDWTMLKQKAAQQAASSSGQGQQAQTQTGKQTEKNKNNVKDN

Block 1
Organism: Sarcocystis neurona
Effect on: parasite growth
Concentration: 10 µM
Time: 96 h
Notes: second screen
Relative to: untreated
Measurement: log2 fold change
COc1cc(NC(C)CCCN)c2ncccc2c1 (stereo not drawn): -6.67
CN1CC(=O)N2[C@H](c3ccc4c(c3)OCO4)c3[nH]c4ccccc4c3C[C@@H]2C1=O: 0.59
C#C[C@]1(O)CC[C@H]2[C@@H]3CCC4=CC(=O)CC[C@@H]4[C@H]3CC[C@@]21C: -0.07
CNCCCN1c2ccccc2CCc2ccccc21: 0.31

Block 2
SMILES: CN(C)c1ccc(C=C2C(=O)Nc3ccccc32)cc1
Effect on: enzyme activity
Action: inhibitor
Technique: radiometric
Measurement: IC50
NTRK3 (Homo sapiens, UniProt Q16288): 82 nM
PDGFRA (Homo sapiens, UniProt P16234): > 30000 nM
NTRK2 (Homo sapiens, UniProt Q16620): 487 nM
NTRK1 (Homo sapiens, UniProt P04629): 1830 nM

Block 3
Cell line: HaCaT
Concentration: 100 µM
Time: 18 h
Measurement: viability
O=C(O)c1ccc(O)c(O)c1: 116%
O=S(=O)(O)CCSSCCS(=O)(=O)O: 95.7%
CSc1nc2cc(Cl)c(Oc3cccc(Cl)c3Cl)cc2[nH]1: 16.9%
Cn1c(=O)c2c(ncn2CC(=O)O)n(C)c1=O: 110%
CN(C)CCCOc1nn(Cc2ccccc2)c2ccccc12: 89.2%

Block 4
Species: human
Medium: microsomes or S9
Concentration: 2 µM
Time: 0.5 h
Measurement: remaining compound
CCn1nc(C2CCCCN2C(=O)NC(C)C)c2c1CCOC2 (stereo not drawn): 68.9%
CCc1ccc(-c2cn(Cc3ncc[nH]3)nn2)nc1: 55.8%
Cc1ccc(C2=C(c3ccccc3)c3cc(OCCN4CCN(S(C)(=O)=O)CC4)ccc3C2=O)cc1: > 100%
COc1ccc(OC)c(N2C(=O)c3cc4occc4n3CC2(C)C(=O)NC2CCCCCC2)c1 (stereo not drawn): 0.726%
Cc1noc(C)c1CCNc1ncnc2onc(-c3cccc(Cl)c3)c12: 99.4%
COC(=O)c1cc(Cl)ccc1C1CCN(CC(=O)N2CCc3ccccc32)CC1: 1.18%

Block 5
Structure (SMILES): CC1=C(C#N)C(c2ccc3c(c2)c(NC(=O)c2ccccc2C)nn3C)C(C#N)=C(C)N1
Concentration: 1 µM
Measurement: remaining binding
ACVR1B (Homo sapiens, UniProt P36896); cell-free assay, competition with immobilised ligand: 80%
DMPK (Homo sapiens, UniProt Q09013); cell-free assay, competition with immobilised ligand: 99%
Ribosomal protein S6 kinase alpha-6, C-terminal kinase domain (RPS6KA6, Homo sapiens, UniProt Q9UK32); cell-free assay, competition with immobilised ligand: 83%
GSK3B (Homo sapiens, UniProt P49841); cell-free assay, competition with immobilised ligand: 81%
CSNK1A1L (Homo sapiens, UniProt Q8N752); cell-free assay, competition with immobilised ligand: 97%
SRC (Homo sapiens, UniProt P12931); cell-free assay, competition with immobilised ligand: 89%
EGFR (Homo sapiens, UniProt P00533, del746-750); cell-free assay, competition with immobilised ligand: 52%
WEE1 (Homo sapiens, UniProt P30291); cell-free assay, competition with immobilised ligand: 100%
CSNK1D (Homo sapiens, UniProt P48730); cell-free assay, competition with immobilised ligand: 89%
MAP3K3 (Homo sapiens, UniProt Q99759); cell-free assay, competition with immobilised ligand: 77%
MELK (Homo sapiens, UniProt Q14680); cell-free assay, competition with immobilised ligand: 81%
CDK13 (Homo sapiens, UniProt Q14004); cell-free assay, competition with immobilised ligand: 87%
CDK19 (Homo sapiens, UniProt Q9BWU1); competition binding: 74%
BMPR2 (Homo sapiens, UniProt Q13873); cell-free assay, competition with immobilised ligand: 79%
CDK17 (Homo sapiens, UniProt Q00537); cell-free assay, competition with immobilised ligand: 100%
EPHA7 (Homo sapiens, UniProt Q15375); cell-free assay, competition with immobilised ligand: 100%
AAK1 (Homo sapiens, UniProt Q2M2I8); binding: 90%

A few entries again (block 1):
COc1cc(NC(C)CCCN)c2ncccc2c1 (stereo not drawn): -6.67
CN1CC(=O)N2[C@H](c3ccc4c(c3)OCO4)c3[nH]c4ccccc4c3C[C@@H]2C1=O: 0.59
C#C[C@]1(O)CC[C@H]2[C@@H]3CCC4=CC(=O)CC[C@@H]4[C@H]3CC[C@@]21C: -0.07
CNCCCN1c2ccccc2CCc2ccccc21: 0.31
